{"data": "Results pooled from the literature", "note": "Lines come from different studies, so protocols differ. ± marks the error that the study gave."}
{"Compound": "CC(=O)Nc1ccc(O[C@@H]2O[C@H](C(=O)O)[C@@H](O)[C@H](O)[C@H]2O)cc1", "system": "healthy volunteers, both sexes, plasma", "conditions": "oral, 650 mg acetaminophen, day 1", "Tmax [h]": 2}
{"Compound": "O=C1CCc2ccc(OCCCCN3CCN(c4cccc(Cl)c4Cl)CC3)cc2N1", "system": "healthy Japanese men, CYP2D6 EM, plasma", "conditions": "oral, 3 mg aripiprazole single, with: paroxetine 20 mg/day", "Tmax [h]": "1.7 ± 0.5"}
{"Compound": "CC1=C2C[C@H]3[C@@H](CC[C@@H]4C[C@H](NS(C)(=O)=O)CC[C@@]43C)[C@@H]2CC[C@@]2(C1)O[C@@H]1C[C@H](C)CN[C@H]1[C@H]2C", "system": "patients, plasma", "conditions": "oral, 90 mg single, day -7, cycle 1", "Tmax [h]": 4}
{"Compound": "CNCc1ccc(-c2[nH]c3cc(F)cc4c3c2CCNC4=O)cc1", "assay": "noncompartmental analysis", "system": "patients, plasma", "conditions": "oral, 600 mg, day 21, with: bevacizumab", "Tmax [h]": "5 ± 1.4"}
{"Compound": "COc1cc2c(cc1OC)CN(CCc1ccc(NC(=O)c3cc(OC)c(OC)cc3NC(=O)c3cnc4ccccc4c3)cc1)CC2", "system": "human, plasma", "conditions": "intravenous infusion, 6 mg/kg", "Tmax [h]": 2.8}
{"Compound": "CO[C@H]1C[C@@H]2CC[C@@H](C)[C@@](O)(O2)C(=O)C(=O)N2CCCC[C@H]2C(=O)O[C@H]([C@H](C)C[C@@H]2CC[C@@H](OP(C)(C)=O)[C@H](OC)C2)CC(=O)[C@H](C)/C=C(\\C)[C@@H](O)[C@@H](OC)C(=O)[C@H](C)C[C@H](C)/C=C/C=C/C=C/1C", "assay": "HPLC-MS/MS", "system": "Japanese patients, whole blood", "conditions": "oral, 20 mg, day 26, cycle 1, median", "Tmax [h]": 4}
{"Compound": "C[C@@H](N)c1cc(Cl)ccc1Cn1c(=S)[nH]c(=O)c2[nH]ccc21", "system": "healthy Chinese volunteers, plasma", "conditions": "oral, 5 mg once daily, day 1, multiple dose, median", "Tmax [h]": 1.5}
{"Compound": "CN1C(=O)[C@@H](NC(=O)c2nnc(Cc3ccccc3)[nH]2)COc2ccccc21", "system": "healthy men, plasma", "conditions": "oral, 20 mg once daily, day 14, median", "Tmax [h]": 1.5}
{"Compound": "COc1cc(OC)c(/C=C/S(=O)(=O)Cc2ccc(OC)c(NCC(=O)O)c2)c(OC)c1", "system": "cancer patients, phase I, plasma", "conditions": "oral, 560 mg twice daily, day 21 cycle 1", "Tmax [h]": "1.08 ± 0.41"}
{"Compound": "CN1CC[C@@H](NC(=O)Nc2ccc(C#N)cc2)C[C@@H]1c1nc2ccccc2[nH]1", "system": "Japanese patients", "conditions": "oral, 50 mg once daily, cycle 1 day 21, median", "Tmax [h]": 4}
{"Compound": "CCCN1CC(c2ccc(S(C)(=O)=O)cc2)=C(c2ccc(C)cc2)C1=O", "system": "healthy Chinese, non-elderly, plasma", "conditions": "oral, 100 mg, fasting", "Tmax [h]": 2}
{"Compound": "Cn1c(-c2ccc(C(N)=O)cc2F)nnc1C(C)(C)Oc1c(F)cc(Cl)cc1F", "system": "elderly non-Japanese subjects, plasma", "conditions": "oral, 20 mg single dose, day 1, median", "Tmax [h]": 3}
{"Compound": "CN[C@H](CC(C)C)C(=O)N[C@H]1C(=O)N[C@@H](CC(N)=O)C(=O)N[C@H]2C(=O)N[C@H]3C(=O)N[C@H](C(=O)N[C@H](C(=O)O)c4cc(O)cc(O)c4-c4cc3ccc4O)[C@H](O)c3ccc(c(Cl)c3)Oc3cc2cc(c3O[C@@H]2O[C@H](CO)[C@@H](O)[C@H](O)[C@H]2O[C@H]2C[C@](C)(N)[C@H](O)[C@H](C)O2)Oc2ccc(cc2Cl)[C@H]1O", "assay": "microdialysis", "system": "pig (Danish Landrace), subcutaneous adipose tissue", "conditions": "iv infusion, 1000 mg over 100 min, with: meropenem co-administered", "Tmax [h]": 2.88}
{"Compound": "Cc1ccc(Sc2ccccc2N2CCNCC2)c(C)c1", "system": "healthy men, plasma", "conditions": "oral, 20 mg once daily, fed, day 12", "Tmax [h]": 8}
{"Compound": "Nc1cc(F)ccc1NC(=O)c1ccc(CNC(=O)/C=C/c2cccnc2)cc1", "system": "Japanese patients, plasma", "conditions": "oral, 40 mg twice weekly, cycle 1 day 25, median", "Tmax [h]": 4.19}
{"Compound": "NC(=O)c1cnc2[nH]ccc2c1N[C@@H]1[C@@H]2CC3C[C@H]1C[C@@](O)(C3)C2", "system": "healthy Caucasian men, plasma", "conditions": "oral, 60 mg, single dose fasted median", "Tmax [h]": 1}
{"Compound": "CCOc1ccc(Cc2cc([C@@H]3S[C@H](CO)[C@@H](O)[C@H](O)[C@H]3O)c(OC)cc2C)cc1", "system": "Japanese type 2 diabetes patients, plasma", "conditions": "oral, 5 mg single dose, eGFR below 30 mL/min/1.73 m^2, median", "Tmax [h]": 1.5}
{"Compound": "Cc1ccc(NC(=O)c2ccc(CN3CCN(C)CC3)cc2)cc1Nc1nccc(-c2cncc(-c3oncc3C)c2)n1", "system": "Parkinson's disease patients, plasma", "conditions": "oral, 50.0 mg once daily, day 7, 7-day dosing, mean", "Tmax [h]": 3.63}
{"Compound": "CC(=O)Nc1ccc(O)cc1", "system": "healthy volunteers, both sexes, plasma", "conditions": "oral, 650 mg, day 1", "Tmax [h]": 0.78}
{"Compound": "CS(=O)(=O)n1cc2c(n1)CN([C@H]1CO[C@H](c3cc(F)ccc3F)[C@@H](N)C1)C2", "system": "healthy Japanese men, plasma", "conditions": "oral, 10 mg once weekly, day 15", "Tmax [h]": 1}
{"Compound": "Cc1nc(-c2ccc(OCC(C)C)c(C#N)c2)sc1C(=O)O", "system": "healthy men, plasma", "conditions": "oral, 80 mg once daily, day 14, median, with: verinurad 2.5 mg", "Tmax [h]": 1.5}
{"Compound": "NC(=S)NN=Cc1ncccc1N", "system": "human, serum", "conditions": "oral, 200 mg", "Tmax [h]": 1.5}
{"Compound": "CC(C)=CCC[C@](C)(O[C@@H]1O[C@H](CO)[C@@H](O)[C@H](O)[C@H]1O)[C@H]1CC[C@]2(C)[C@@H]1[C@H](O)C[C@@H]1[C@@]3(C)CC[C@H](O[C@@H]4O[C@H](CO)[C@@H](O)[C@H](O)[C@H]4O)C(C)(C)[C@@H]3CC[C@]12C", "assay": "LC-MS/MS", "system": "healthy male volunteers, serum", "conditions": "oral, 3 g fermented red ginseng", "Tmax [h]": "10.2 ± 3.58"}
{"Compound": "CN[C@H]1C(=O)N[C@@H]2Cc3ccc(cc3)Oc3cc4cc(c3O[C@@H]3O[C@H](C(=O)O)[C@@H](O)[C@H](O)[C@H]3NC(=O)CCCCCCCCC(C)C)Oc3ccc(cc3Cl)[C@@H](O)[C@@H]3NC(=O)[C@H](NC(=O)[C@@H]4NC(=O)[C@@H](NC2=O)c2cc(cc(O)c2Cl)Oc2cc1ccc2O)c1ccc(O)c(c1)-c1c(O[C@H]2O[C@H](CO)[C@@H](O)[C@H](O)[C@@H]2O)cc(O)cc1[C@@H](C(=O)NCCCN(C)C)NC3=O", "system": "healthy Japanese subjects, plasma", "conditions": "intravenous infusion, 1000 mg, 30 min infusion, single dose, median", "Tmax [h]": 1}
{"Compound": "CC(C)=CCC[C@](C)(O[C@@H]1O[C@H](CO)[C@@H](O)[C@H](O)[C@H]1O)[C@H]1CC[C@]2(C)[C@@H]1[C@H](O)C[C@@H]1[C@@]3(C)CC[C@H](O[C@@H]4O[C@H](CO)[C@@H](O)[C@H](O)[C@H]4O[C@@H]4O[C@H](CO)[C@@H](O)[C@H](O)[C@H]4O)C(C)(C)[C@@H]3CC[C@]12C", "assay": "LC-MS/MS", "system": "healthy female volunteers, serum", "conditions": "oral, 3 g red ginseng", "Tmax [h]": "8.33 ± 7.02"}
{"Compound": "Nc1ncc(-c2cnn(CCO)c2)c2scc(-c3ccc(NC(=O)Nc4cccc(F)c4)cc3)c12", "system": "patients, plasma", "conditions": "oral, 320 mg twice weekly, day 15", "Tmax [h]": "20 ± 11.3"}
{"Compound": "C[C@@H](O)[C@H]1C(=O)N2C(C(=O)O)=C(S[C@@H]3CN[C@H](C(=O)N(C)C)C3)[C@H](C)[C@H]12", "assay": "microdialysis", "system": "pig (Danish Landrace), cancellous bone", "conditions": "iv infusion, 1000 mg over 10 min, with: vancomycin co-administered", "Tmax [h]": 0.683}
{"Compound": "O=C(c1cccnc1-c1ccncc1)N1CCC(O)(Cc2ccccc2)CC1", "system": "healthy subjects, plasma", "conditions": "oral, 300 mg twice daily, day 1", "Tmax [h]": 0.44}
{"Compound": "CCC(CC)O[C@@H]1C=C(C(=O)O)C[C@H](N)[C@H]1NC(C)=O", "system": "healthy Indian subjects, fed, plasma", "conditions": "oral, 75 mg oseltamivir phosphate, test capsule formulation", "Tmax [h]": "6.15 ± 1.15"}
{"Compound": "NC(=O)c1cnc2[nH]ccc2c1N[C@@H]1[C@@H]2CC3C[C@H]1C[C@@](O)(C3)C2", "system": "Japanese, normal hepatic function, plasma", "conditions": "oral, 150 mg single dose, median", "Tmax [h]": 1.25}
{"Compound": "NS(=O)(=O)c1cc(Cl)c(Cl)c(S(N)(=O)=O)c1", "system": "healthy volunteers, plasma", "conditions": "oral, 100 mg, single dose, median", "Tmax [h]": 2}
{"Compound": "CO/N=C1\\C[C@]2(C[C@@H]3C[C@@H](C/C=C(\\C)C[C@@H](C)/C=C/C=C4\\CO[C@@H]5[C@H](O)C(C)=C[C@@H](C(=O)O3)[C@]45O)O2)O[C@H](/C(C)=C/C(C)C)[C@H]1C", "assay": "HPLC, non-compartmental", "system": "Corriedale lambs, parasitized, plasma", "conditions": "subcutaneous, 0.2 mg/kg, with: closantel 5 mg/kg subcutaneous", "Tmax [h]": "12 ± 4.56"}
{"Compound": "CC[C@H](C)[C@H](NC(=O)[C@@H]1CCCN1C(=O)CNC(=O)[C@H](Cc1ccccc1)NC(=O)[C@H](CC(N)=O)NC(=O)[C@H](CC(N)=O)NC(=O)[C@H](CO)NC(=O)[C@H](CO)NC(=O)[C@H](Cc1c[nH]cn1)NC(=O)[C@@H](NC(=O)[C@H](CC(C)C)NC(=O)[C@H](Cc1ccccc1)NC(=O)[C@H](CC(N)=O)NC(=O)[C@H](C)NC(=O)[C@H](CC(C)C)NC(=O)[C@H](CCCNC(=N)N)NC(=O)[C@H](CCC(N)=O)NC(=O)[C@@H](NC(=O)[C@H](C)NC(=O)[C@@H]1CSSC[C@H](NC(=O)[C@@H](N)CCCCN)C(=O)N[C@@H](CC(N)=O)C(=O)N[C@@H]([C@@H](C)O)C(=O)N[C@@H](C)C(=O)N[C@@H]([C@@H](C)O)C(=O)N1)[C@@H](C)O)C(C)C)C(=O)N[C@@H](CC(C)C)C(=O)N1CCC[C@H]1C(=O)N1CCC[C@H]1C(=O)N[C@H](C(=O)N[C@@H](CC(N)=O)C(=O)N[C@H](C(=O)NCC(=O)N[C@@H](CO)C(=O)N[C@@H](CC(N)=O)C(=O)N[C@H](C(=O)N[C@@H](Cc1ccc(O)cc1)C(N)=O)[C@@H](C)O)C(C)C)[C@@H](C)O", "assay": "ELISA", "system": "type 1 diabetes patients, plasma", "conditions": "subcutaneous, 6, 9 or 12 µg/U insulin", "Tmax [h]": "0.25 to 0.5"}
{"Compound": "CCCOc1ccc([C@H]2CNC(=O)N2c2ccc3[nH]cnc3c2)cc1", "system": "non-elderly adults, fasted, plasma", "conditions": "oral, 50 mg twice daily, day 11, oral solution, median", "Tmax [h]": 0.5}
{"Compound": "COc1ccc2c3c1O[C@H]1C[C@@H](OC(=O)c4ccccc4)C=C[C@@]31CCN(C)C2", "system": "healthy elderly men, plasma", "conditions": "intranasal, 22 mg, single dose", "Tmax [h]": 0.6}
{"Compound": "CC[C@H](C)[C@H](NC(=O)[C@H](CCC(=O)O)NC(=O)[C@H](CO)NC(=O)[C@@H](NC(=O)[C@@H](N)CO)C(C)C)C(=O)N[C@@H](CCC(N)=O)C(=O)N[C@@H](CC(C)C)C(=O)N[C@@H](CCSC)C(=O)N[C@@H](Cc1cnc[nH]1)C(=O)N[C@@H](CC(N)=O)C(=O)N[C@@H](CC(C)C)C(=O)NCC(=O)N[C@@H](CCCCN)C(=O)N[C@@H](Cc1cnc[nH]1)C(=O)N[C@@H](CC(C)C)C(=O)N[C@@H](CC(N)=O)C(=O)N[C@@H](CO)C(=O)N[C@@H](CCSC)C(=O)N[C@@H](CCC(=O)O)C(=O)N[C@@H](CCCN=C(N)N)C(=O)N[C@H](C(=O)N[C@@H](CCC(=O)O)C(=O)N[C@@H](Cc1c[nH]c2ccccc12)C(=O)N[C@@H](CC(C)C)C(=O)N[C@@H](CCCN=C(N)N)C(=O)N[C@@H](CCCCN)C(=O)N[C@@H](CCCCN)C(=O)N[C@@H](CC(C)C)C(=O)N[C@@H](CCC(N)=O)C(=O)N[C@@H](CC(=O)O)C(=O)N[C@H](C(=O)N[C@@H](Cc1cnc[nH]1)C(=O)N[C@@H](CC(N)=O)C(=O)N[C@@H](Cc1ccccc1)C(=O)O)C(C)C)C(C)C", "system": "postmenopausal women, osteoporosis, plasma", "conditions": "subcutaneous, 56.5 µg once weekly", "Tmax [h]": "0.573 to 0.685"}
